Published values pooled from the literature.
Numbered parts are unrelated; each lists some results of a single study. Changes are numbered by the printed parent chain.

Series 1 — target: CCNE2, cyclin fold, Cln2 fusion (human); method: yeast growth competition, sequencing; sample: yeast; setting: weak parent motif; relative to: not given; direction: higher = stronger binding
Parent: SLBP docking peptide (human); ARYKRKLLINDFG
Substitution | normalised enrichment score
ARYKRKLLINDFL [G13L] | 0.179
ARYKRKLLINDFQ [G13Q] | 1.27
ARYKRKLLINYFG [D11Y] | 1.32
ARFKRKLLINDFG [Y3F] | 0.312
ARYKRKLLMNDFG [I9M] | 0.85
ARYKRKLLINDFH [G13H] | 1.26
ARYKRKLDINDFG [L8D] | 0.473
AMYKRKLLINDFG [R2M] | 1.15
ARAKRKLLINDFG [Y3A] | 0.581
CRYKRKLLINDFG [A1C] | 0.317
ARYKRKKLINDFG [L7K] | 0.585
ARYSRKLLINDFG [K4S] | 0.502
ARYKRKLLINWFG [D11W] | 0.367
YRYKRKLLINDFG [A1Y] | -0.104
ARYDRKLLINDFG [K4D] | -0.198
ARYKRKLCINDFG [L8C] | 0.398
ARYKRKRLINDFG [L7R] | 0.85
ARYKRKLLINDFD [G13D] | 0.00935
ARYKRKLIINDFG [L8I] | 0.908

Series 2 — method: RNA Bind-n-Seq; form: RNA; sample: in vitro; tested at: not given; relative to: input RNA pool; direction: higher = stronger binding
Target: RING finger protein unkempt homolog, zinc fingers 1-6, GST-SBP tag (UNK, Homo sapiens, UniProt Q9C0B0, residues 30-357)
Setting: RNA with constant flanks, human and mouse sites, ends assumed
Residues (chain): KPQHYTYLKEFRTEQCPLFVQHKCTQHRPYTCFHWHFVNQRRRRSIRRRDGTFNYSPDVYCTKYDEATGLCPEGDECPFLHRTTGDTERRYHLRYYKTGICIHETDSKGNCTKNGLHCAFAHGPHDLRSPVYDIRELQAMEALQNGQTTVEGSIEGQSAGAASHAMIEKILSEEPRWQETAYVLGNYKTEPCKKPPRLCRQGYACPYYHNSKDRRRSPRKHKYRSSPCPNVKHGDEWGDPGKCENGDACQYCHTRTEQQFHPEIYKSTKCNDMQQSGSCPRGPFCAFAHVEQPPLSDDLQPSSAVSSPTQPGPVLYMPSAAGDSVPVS
Sequence | bound/input enrichment [ratio]
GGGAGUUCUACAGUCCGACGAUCCUCUCCAGUAGAAGCUGUGAGCACACCUAACACUCCUCGAAACCUUGCUGCCUGGAAAAUUAGCAUUCCGUAUGUAGACUUUUUUGAAGAUCCCUCCUCUGAAAGGAAAGAGAAGAAGGACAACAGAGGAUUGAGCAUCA | 2.56
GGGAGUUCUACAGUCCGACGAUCGAUUCUCAGGGUAAAAAGAAAUGGAAAAAAACAUGCUGUCUCCCGUCUUUUAUAAUCUUUCUUUUUAUUGUUGGCUGCAUUAUUGCUGGAAUUACUCUUUUGGCUAUAUUCCGAGUUGACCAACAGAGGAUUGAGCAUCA | 0.331
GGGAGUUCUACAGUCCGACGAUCAUUGAGCCUGUAUUUCCAGAGAACACAGAAAACUCUGAAAAAAUAUCCUUUCAGCUUCAUUUAGCUUUAACUUCAAAUUCAUCUUGGGUUCAGUGUCCCAGCCAUUUGGAACUCAUGAAUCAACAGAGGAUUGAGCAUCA | 0.597
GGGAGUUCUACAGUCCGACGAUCCCAACCUCUUCAGCCUCCAUCCCUGUGACCUCAUCAGUCUCAGAUCCUGGAGUGGGCUCCAUUUCUCCAGCUUCUCCAAAGAUCUCCCUGGCCCCCACAGAUGUAAAAGAACUCUCUACCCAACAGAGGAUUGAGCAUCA | 0.367
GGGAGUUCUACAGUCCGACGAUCAAAGAGUGGAUAGAGUGUGCACACGGGAUCGGUGGGACCCGGGCGAAAAAGGAGUGCAAGAUAGAGUUCGAUGACUUCGAAGAGUGCUUGCUUCGGUACAAAACGAUGAGGCGAAUGCAUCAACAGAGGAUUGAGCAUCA | 0.345
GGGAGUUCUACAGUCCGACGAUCUCAACGGAUCCCUCCCCGCCUCCAUCCUCGUUCUGUGGGAGAGACCAGCCUUCUGGUGCUGCAGUCAGGAAUGGAGCUUGACAGCGCUCUGGAAGCCCCAUCGCAGGAAGACUCUAAUUUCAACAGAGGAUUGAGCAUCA | 0.0817
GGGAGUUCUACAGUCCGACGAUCUAUUUUGAUACUCUGUAUGUGUACAUAUAAUUUAACUGUAAUAUGUAUGUUGUAAUAUAUUAUAGAUACUGUACUUGUCAUAUCAAGGGUUCUUGUUGUUAUUAAUUAAGCUUUAAAUGUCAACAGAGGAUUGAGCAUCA | 0.382
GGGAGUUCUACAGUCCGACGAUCUUCAUCUCUCAUUUUAUAUGUCCAGAAAUGGCUUUGAAUUUUAAGCAAUUACUAGUUUUAAUUAGCUCUGCCCUCAUGAAGUAUUAUUAUAAUUCACCAUAAACAGCUAUCUGUCUGAAUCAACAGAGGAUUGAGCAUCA | 28.8
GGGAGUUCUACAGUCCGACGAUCGGGAUCGCUCCGUCGCACCCACCAUGAUGGAAGACGACGGGCAGCCCCGGACUCUAUACGUAGGUAACCUUUCCAGAGAUGUGACAGAAGUCCUUAUACUUCAGUUGUUCAGUCAGAUUGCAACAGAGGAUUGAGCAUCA | 0.102
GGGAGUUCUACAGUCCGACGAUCAGAUUUGUCAUGAGGGAAAUCAAUGAUCGUAUUAUGAAAGUGGAGUAUCACUUCCUGUCGCCCUAUGUAUCUCCAAGAGAGUCUCCUUUCCGACAUAUCUUCUGGGGCUCUGGCUCUCACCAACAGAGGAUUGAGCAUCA | 0.186
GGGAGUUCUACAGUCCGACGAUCCUGAAACCAGCCAAUGUUUUCCUGGAUGGCAAGCAAAACGUCAAGCUUGGAGACUUUGGGCUAGCUAGAAUAUUAAACCAUGACACGAGUUUUGCAAAAACAUUUGUUGGCACACCUUAUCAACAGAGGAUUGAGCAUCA | 2.56

Series 3 — method: Spec-seq; form: double-stranded DNA, one strand shown; sample: in vitro; tested at: not given; setting: whole probe, mean of replicates; relative to: not given; direction: lower = stronger binding; shared flanks, not repeated: GAGTCGTCTCGTCAGCAC … CCGTAGAGCACTCAGGTC
Target: Transcription factor SOX-2, HMG box (Sox2, Mus musculus, UniProt P48432, residues 41-119)
Chain of UniProt P48432 (41-119, looked up): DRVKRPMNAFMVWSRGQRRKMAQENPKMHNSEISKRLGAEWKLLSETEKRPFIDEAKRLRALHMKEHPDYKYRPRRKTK
Sequence | relative binding energy [ln ratio]
GTTAGTT | 0.547
CGGTGTT | 0.801
CATGAGT | 0.368
GGTCGTT | 1.31
CATTGAT | -1.66
CATCGGC | 0.583
CATACGA | 0.018
TGACGTT | 1.06
AACAGTT | -1.01
AACTGTT | -0.812
CATCATC | 0.436
CATAACC | 0.221
CATCCTC | 0.675
CATCGTC | 0.629
CCTCGTT | 0.937
CATGATT | 0.0522

Series 4 — method: protein-binding microarray; form: double-stranded DNA, one strand shown; sample: in vitro; tested at: 0.8 µM; setting: whole 60-bp probe, no competitor; direction: higher = stronger binding
Target: Centromere-binding protein 1, full length, N-terminal tag (CBF1, Saccharomyces cerevisiae, UniProt P17106, residues 1-351)
Chain of UniProt P17106 (whole entry, looked up): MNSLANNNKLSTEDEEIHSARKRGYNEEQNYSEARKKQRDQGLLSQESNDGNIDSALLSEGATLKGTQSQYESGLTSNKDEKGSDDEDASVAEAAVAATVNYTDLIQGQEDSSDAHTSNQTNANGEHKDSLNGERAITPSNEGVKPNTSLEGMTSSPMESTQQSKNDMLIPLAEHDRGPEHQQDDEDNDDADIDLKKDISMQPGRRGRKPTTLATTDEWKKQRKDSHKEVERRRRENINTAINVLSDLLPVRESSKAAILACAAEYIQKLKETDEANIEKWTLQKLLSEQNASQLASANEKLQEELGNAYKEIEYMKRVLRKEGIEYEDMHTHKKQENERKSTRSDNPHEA
Sequence | fluorescence intensity
CTACGCTGCGAAGGTGACGTAGCAATCCAAAAATTCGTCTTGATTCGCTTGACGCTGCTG | 509 a.u.
GAATTCTGCCTATGCAAGGTGACCGTTTTTGCATAGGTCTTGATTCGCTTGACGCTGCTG | 524 a.u.
CTAGCGAAAAGATGTCACACGTCAGTAAATCCGTTCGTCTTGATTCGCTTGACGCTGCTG | 849 a.u.
CTAGTTCTCAAACGTCACGCTATGAACAGTACATTCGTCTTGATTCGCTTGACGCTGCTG | 712 a.u.
GAATAGAAAGTGACATATCACATGTATGGTAGTTAGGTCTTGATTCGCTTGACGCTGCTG | 1550 a.u.
CTAAAGTTACTCCATCATCTGACACCTAGAGACTTCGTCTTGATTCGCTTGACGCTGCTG | 725 a.u.
GAAAAAAACGCACTTAAGGTGACGTAGATGCGTTAGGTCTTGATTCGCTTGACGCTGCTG | 502 a.u.
GAATATTAGCTTGAACTCGTGGTTCCTATTGTCTAGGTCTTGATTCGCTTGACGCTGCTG | 597 a.u.
GAAAGTGACAACGAGCACGGGTGCACCATATGGTAGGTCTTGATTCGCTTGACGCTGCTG | 677 a.u.
GAACGCGTTCCGTGACACGTTAAAGGATAATAGTAGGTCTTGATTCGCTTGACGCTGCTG | 936 a.u.
TGTACGAAGCTATATAACGTGAGTATAGTAGTTAGGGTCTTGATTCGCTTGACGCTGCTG | 602 a.u.
GAAAAGAGCTATAGAGAAGTCACAGGATATAGATAGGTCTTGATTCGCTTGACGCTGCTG | 751 a.u.
TGTACGAAGCTATGATGACGTGGTATAGTAGTTAGGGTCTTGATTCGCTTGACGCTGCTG | 538 a.u.
CTAGTCACTTTTCATCACGTGTGTATTTAAGTATTCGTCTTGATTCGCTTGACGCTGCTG | 7730 a.u.
CTATGGCATTTTAAGCACATGAGGAGATGAACGTTCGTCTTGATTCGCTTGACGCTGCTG | 650 a.u.
GAAATAAAAGAAAAACACGTTTGAAAAAAGAAATAGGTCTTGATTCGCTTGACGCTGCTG | 636 a.u.
GAAAAATCGGCGGTGATGGTGATGATGAATCATTAGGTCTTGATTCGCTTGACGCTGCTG | 488 a.u.
GAAAGTAATAAGCTTGACGTGATGTACTTAGTCTAGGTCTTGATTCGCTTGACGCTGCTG | 561 a.u.
TGTACGAAGCTATGAATCGTGATTATAGTAGTTAGGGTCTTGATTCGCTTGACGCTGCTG | 593 a.u.
CTAAATCTCTAAGTACACGTGCATTTGGACCTATTCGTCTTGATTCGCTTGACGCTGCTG | 5150 a.u.
